Published values gathered from unrelated publications.
Parts stem from different laboratories: compare values within a part only. Substitutions count along the parent as printed.

Series 1
Target: ABI1, truncated, D143A, DHFR fusion (Arabidopsis thaliana)
Method: DHFR PCA, deep sequencing
Matrix: yeast
Notes: methotrexate growth selection, single substitutions
With: (+)-ABA 0.11 µM
Reference: wild-type fitted maximum
Direction: higher = stronger binding
Starting sequence: PYL1, truncated, DHFR fusion (Arabidopsis thaliana); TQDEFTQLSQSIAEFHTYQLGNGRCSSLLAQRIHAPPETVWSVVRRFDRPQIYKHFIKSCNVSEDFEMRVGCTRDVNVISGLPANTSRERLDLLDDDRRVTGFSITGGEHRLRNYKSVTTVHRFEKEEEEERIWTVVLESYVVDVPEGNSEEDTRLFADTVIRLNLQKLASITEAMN
Change | relative binding score [%]
D144E | 2.99
L138D | 5
S59Q | 9.37
R32K | 35.4
I105R | -3.84
F15H | 13
F103S | -1.86
N165M | 4.54
L20W | 3.92
T173W | -10.8
T106E | 11.2
Y115R | -4.67

Series 2
Target: CCNB1, cyclin fold, Cln2 fusion (human)
Method: yeast growth competition, sequencing
Matrix: yeast
Notes: strong parent motif
Reference: not given
Direction: higher = stronger binding
Starting sequence: CDC42EP1 docking peptide (human); SLVVGKLSFDSSP
Change | normalised enrichment score
S1A | 1.77
S11A | 1.52
S8A | 1
G5A | 1.93
P13A | 1.38
L2A | 1.99
K6A | 1.01

Series 3
Target: CEBPB, bZIP domain (human)
Method: DHFR protein complementation
Matrix: yeast
Notes: single substitutions, most at no-binding floor
Reference: wild-type JUN-FOS pair
Direction: higher = stronger binding
Starting sequence: JUN, bZIP domain (human); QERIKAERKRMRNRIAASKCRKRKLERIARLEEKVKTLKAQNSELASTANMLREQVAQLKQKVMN; partner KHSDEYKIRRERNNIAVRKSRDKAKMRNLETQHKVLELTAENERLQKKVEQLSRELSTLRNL
Change | binding fitness
S47Q | -1.23 natural log
L45M | -1.54 natural log
V35P | -1.52 natural log
S47T | -1.36 natural log
E32F | -1.48 natural log
N42I | -1.51 natural log
E33C | -1.45 natural log
N42S | -1.5 natural log
E44Q | -1.26 natural log
E32R | -1.41 natural log
I28T | -1.23 natural log
A29P | -1.42 natural log
L38R | -1.52 natural log
R53K | -1.17 natural log
A57T | -1.24 natural log
E33R | -1.39 natural log
L45I | -1.37 natural log
Q41M | -1.29 natural log
S43R | -1.19 natural log

Series 4
Target: RNA binding protein fox-1 homolog 2, RRM domain, GST-SBP tag (RBFOX2, Homo sapiens, UniProt O43251-10, residues 100-194)
Method: RNA Bind-n-Seq
Form: RNA
Matrix: in vitro
Concentration: 365 nM
Notes: natural RNA segment, single round, ends assumed
Reference: no-protein control
Direction: higher = stronger binding
Shared flanks, not repeated: GGGAGUUCUACAGUCCGACGAUC … UGGAAUUCUCGGGUGCCAA
Target sequence (chain): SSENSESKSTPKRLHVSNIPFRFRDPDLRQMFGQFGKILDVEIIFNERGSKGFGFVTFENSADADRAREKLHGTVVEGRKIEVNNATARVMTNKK
Sequence | RBNS enrichment (R)
CCACAGCAAAGGUAUUGUGGAUGACCCUUAGAAUCCAUUCUCUGGUCUUCUGAAAUACCAAGGGCAGAUGUCACCUCCUUCCUCAGCAGGACUGACUCUGGGCUCUACAA | 0.291
UCCAUCUGCACACACCCCCAAGGUAAGGGUACAGCCCGGCUGGCGGCCUCCUUGGGAACGUGUAGGCCACGGCUCUGCCACCACUAGGUACCUGCUGAGGGCGCUGGCUC | 0.339
AAGUAUGUACUCUUUGCUUUUGCAUGGCUUGGCUUAGUAUCCAAGGUAUAUUAGAGCCACUUGAAAGCAUGAAGACCAGUUAUAUGGAAACAGGUUUCUCUCAGUGGCAC | 6.72
UUAUUGUAUAGAGCUGCUUCAAUUCUGAGUCCUCUGGACUUCCCCUGCCUAUCUGUUUGUUGUUGUUGUUGAAGACAGUAAAAUAAGUGUUUUCAAAUCUAUAUGUCUCC | 3.26
CUGUGUACUUAUCUUCCCCAAGAGAAAAUGCUUCUUUUGAGCACACUGUACCUACCAUCUGCAUUGAGCAGAAAGACUUUUGUUUUACUGAAGACAAAAGAUGUUUUUAU | 0.455
UAGUUUCACAAUUACGAGUGAAAAAUCAUGUAAUUAUCUGUAAAUAUGUAGCUAACAAAUUGACCUAGUUUCUGUACUUUUUUGGUUUUGUACUAAAGUUUAUAGGUCUG | 0.48
GUAUUAUAUUUUUAUAGAAAUGUUUAUUUUUAAUGAUGUAAGAAAAAUUUUCCUUAGGCCGCAGAAAUCCUGCACUGUGAGCAUUUCAGAAGAGGUAUGUGAGACCCAGU | 0.539
ACCCCAUGAAGGGACCGCCCCCUCCCAAGGAUGGUCCCUUUGGGUGCAGCAGCAGAGGUCACCUCCUGACAUGCGCUCUGGGAAAGGUGGCAGAGGGCAGGACACCAUGA | 0.289
UUUACAAAUGUAAAAAACAAAAAGUGUAUUAAUGUAUUUGUUCAGGAAAAGCUACAUACCGAAGGGCUUUUGUAUAUGAAUUCUGUGGUGGGGAGACCCAUUUGUAAUCU | 0.507
UCUUCACUUUCGCUUGGUCCCAGCAGGACCUGAUGGCCACGCGUGCCUUGGCCACAGGAAGCUGCCGAGACUGGCCAUGUGGCUGGGCUAGGCUGUGCCCUCCCUCUCCC | 0.228
AAGCAACCUAGUUUAUGGGGCAGCUGGACUUUGCAUGUUAGAGUGAGCCCCAAGCCCCUUGGCCCACCACCCUGUUGUCUGAAGGGCUCUGUCUCACUCCACCUCCUUAU | 23.3
GGACACUCAAGGGUACAGUUUGACACUGAUCUGGUCCAUGAGGCUGCCCAGAGAAAGCACUGCUUCUGUAUGUCUCUUGUGGUAUUGGAACAAUAAACCCGUACAACCUG | 0.416

Series 5
Target: RING finger protein unkempt homolog, zinc fingers 1-6, GST-SBP tag (UNK, Homo sapiens, UniProt Q9C0B0, residues 30-357)
Method: RNA Bind-n-Seq
Form: RNA
Matrix: in vitro
Concentration: not given
Notes: RNA with constant flanks, human and mouse sites, ends assumed
Reference: input RNA pool
Direction: higher = stronger binding
Shared flanks, not repeated: GGGAGUUCUACAGUCCGACGAUC … CAACAGAGGAUUGAGCAUCA
Residues (chain): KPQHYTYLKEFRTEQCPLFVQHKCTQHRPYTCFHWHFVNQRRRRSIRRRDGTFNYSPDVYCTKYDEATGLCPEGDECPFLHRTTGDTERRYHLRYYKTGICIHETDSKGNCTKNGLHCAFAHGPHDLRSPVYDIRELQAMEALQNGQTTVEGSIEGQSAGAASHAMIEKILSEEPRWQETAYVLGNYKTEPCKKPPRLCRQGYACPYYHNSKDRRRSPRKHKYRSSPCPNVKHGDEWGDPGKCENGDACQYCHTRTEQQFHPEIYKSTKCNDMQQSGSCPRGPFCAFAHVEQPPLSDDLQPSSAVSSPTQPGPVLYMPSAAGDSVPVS
Sequence | bound/input enrichment
GUCAACAGUUGUCUCAAUCCCAUUCUCUAUGCUUUCUUGGAUGAGAACUUCAAGGCCUGCUUUAGAAAGUUCUGCUGUGCUUCUGCCCUGCACCGGGAGAUGCAGGUUUCUGAUCGUGUG | 0.416 ratio
UAGAGUGGGGCAUACAUAAUCUUGCUGCUAUGCUUCGAAGCUGUAGUCUGAAUCAACCUAAGUUUUAAACAGAAGGUGAACCUCUGAGAUAGAAAAUCAAGUAUAUUUUAAAAGAAGGGA | 2.26 ratio
AGAAACUGGACCAUCAACCGGCUUAAUGGUGAUUUUGCUCAGCUCAAUUUAAAGAUAAAAUUUUUGGAAGCUGGUAUCUAUGAAGUUCCCAUCAUUAUCACAGAUUCAGGGAAUCCCCCC | 0.514 ratio
AGACGGUAAACAUCUGGAGUCAUUUGCUGGGUUUCUUUCUCUUCUUCACCCUGGGGAUAUAUGACAUGACAUCCGUGCUGCCUUCCGCCAGCGCAUCCAGAGAAGACUUUGUGAUUUGCU | 0.273 ratio
CUGAAGGUUCUAGGCACAGCUUUUGAUCCCUUCUUAGGAGGAAAGAACUUUGAUGAGAAGCUAGUAGAACAUUUUUGUGCUGAAUUUAAAACCAAGUACAAAUUGGAUGCAAAAUCCAAA | 0.34 ratio
UGUGGGAUAUCACAUCAGUGGUUCCAAGAUUUCAAAGUGGUGAAAUGAAAAUGGAGCAGCUAGUAUGUUUUAUUAUUUUAUGGGUCUUGAGUGCAUUUGAAGGUGUCCUUCAGUUCCCAC | 0.38 ratio
UGGUGAUCGAGUUUCUCUUCCGCCAGAGCAAAAUCAGUGAGGUCCUGGGAGGCAGCGGCUACAAUUCAGACAGGCUCUGCCUGCCGUACAUCCCUCAGCUGACAGAUGAAGAUCGCUUGU | 0.0641 ratio
ACAAGUGAAGAGGGAUCUGGAGACUUGGAUAAUCUAGAUGCUAUUCUUGGUGAUCUGACUAGUUCUGACUUUUACAAUAAUUCCAUAUCCUCAAAUGGUAGUCAUCUGGGGACUAAGCAA | 1.21 ratio
CGUCUUACUCAACUGCCCCUUUCCUCUCCCUCAGAAUUUGUGUUUGCUGCCUCUAUCUUGUUUUUUGUUUUUUCUUCUGGGGGGGGUCUAGAACAGUGCCUGGCACAUAGUAGGCGCUCA | 1.28 ratio
ACAGACUGUGUGGUAAUGAGGGAUCCUGCAAGCAAAAGAUCAAGAGGAUUUGGUUUUGUAACUUUUUCAUCCAUGGCUGAGGUUGAUGCUGCCAUGGCUGCAAGACCUCAUUCAAUUGAU | 0.262 ratio
GAGGAGAAGCCGCCUAACCCUAUGGAGGGCAUGACAGAGGAGCAGAAGGAGCACGAGGCCAUGAAGCUGGUGACCAUGUUUGACAAGCUCUCCAGGAACAGAGUCAUCCAGCCAAUGGGG | 0.178 ratio

A few entries again (series 1):
Change | relative binding score [%]
T173W | -10.8
Y115R | -4.67
N165M | 4.54
F15H | 13
L20W | 3.92
T106E | 11.2
L138D | 5
I105R | -3.84
S59Q | 9.37
